Assay results pooled from the literature.
± gives the spread as reported.
PLK1: Serine/threonine-protein kinase PLK1 (PLK1, Homo sapiens, UniProt P53350)
UniProt P53350, sequence (whole entry, looked up): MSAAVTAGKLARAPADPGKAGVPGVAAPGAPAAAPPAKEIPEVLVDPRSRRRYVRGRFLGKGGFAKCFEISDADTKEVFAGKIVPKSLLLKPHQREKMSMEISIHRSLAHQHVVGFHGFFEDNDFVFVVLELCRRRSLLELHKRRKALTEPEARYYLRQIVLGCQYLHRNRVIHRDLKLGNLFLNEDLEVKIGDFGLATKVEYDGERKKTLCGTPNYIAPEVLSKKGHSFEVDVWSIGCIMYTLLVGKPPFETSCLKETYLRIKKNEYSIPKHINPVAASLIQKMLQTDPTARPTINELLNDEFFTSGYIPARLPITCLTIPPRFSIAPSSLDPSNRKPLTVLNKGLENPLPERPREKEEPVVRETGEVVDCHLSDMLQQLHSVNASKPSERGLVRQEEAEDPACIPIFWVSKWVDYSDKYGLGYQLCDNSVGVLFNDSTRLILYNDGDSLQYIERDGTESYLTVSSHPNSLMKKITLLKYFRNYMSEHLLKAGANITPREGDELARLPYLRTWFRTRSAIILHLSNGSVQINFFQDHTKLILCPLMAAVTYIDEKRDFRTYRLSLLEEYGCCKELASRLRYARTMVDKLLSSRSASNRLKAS
Histone acetyltransferase RTT109 with Vps75: Histone acetyltransferase RTT109, with Vps75 (Saccharomyces cerevisiae, UniProt Q07794)
UniProt Q07794, sequence (whole entry, looked up): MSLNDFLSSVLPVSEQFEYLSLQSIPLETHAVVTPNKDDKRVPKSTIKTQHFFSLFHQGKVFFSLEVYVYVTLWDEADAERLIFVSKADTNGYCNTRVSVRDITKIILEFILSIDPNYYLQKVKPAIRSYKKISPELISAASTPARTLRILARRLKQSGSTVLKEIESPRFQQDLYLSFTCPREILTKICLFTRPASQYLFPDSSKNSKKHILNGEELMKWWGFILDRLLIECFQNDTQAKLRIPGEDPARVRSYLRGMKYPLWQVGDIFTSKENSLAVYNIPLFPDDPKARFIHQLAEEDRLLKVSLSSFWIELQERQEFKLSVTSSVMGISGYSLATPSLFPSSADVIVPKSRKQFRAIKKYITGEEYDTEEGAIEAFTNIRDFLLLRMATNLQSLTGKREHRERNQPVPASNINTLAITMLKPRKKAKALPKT
PIK3CA: Phosphatidylinositol 4,5-bisphosphate 3-kinase catalytic subunit alpha isoform (PIK3CA, Homo sapiens, UniProt P42336)
UniProt P42336, sequence (whole entry, looked up): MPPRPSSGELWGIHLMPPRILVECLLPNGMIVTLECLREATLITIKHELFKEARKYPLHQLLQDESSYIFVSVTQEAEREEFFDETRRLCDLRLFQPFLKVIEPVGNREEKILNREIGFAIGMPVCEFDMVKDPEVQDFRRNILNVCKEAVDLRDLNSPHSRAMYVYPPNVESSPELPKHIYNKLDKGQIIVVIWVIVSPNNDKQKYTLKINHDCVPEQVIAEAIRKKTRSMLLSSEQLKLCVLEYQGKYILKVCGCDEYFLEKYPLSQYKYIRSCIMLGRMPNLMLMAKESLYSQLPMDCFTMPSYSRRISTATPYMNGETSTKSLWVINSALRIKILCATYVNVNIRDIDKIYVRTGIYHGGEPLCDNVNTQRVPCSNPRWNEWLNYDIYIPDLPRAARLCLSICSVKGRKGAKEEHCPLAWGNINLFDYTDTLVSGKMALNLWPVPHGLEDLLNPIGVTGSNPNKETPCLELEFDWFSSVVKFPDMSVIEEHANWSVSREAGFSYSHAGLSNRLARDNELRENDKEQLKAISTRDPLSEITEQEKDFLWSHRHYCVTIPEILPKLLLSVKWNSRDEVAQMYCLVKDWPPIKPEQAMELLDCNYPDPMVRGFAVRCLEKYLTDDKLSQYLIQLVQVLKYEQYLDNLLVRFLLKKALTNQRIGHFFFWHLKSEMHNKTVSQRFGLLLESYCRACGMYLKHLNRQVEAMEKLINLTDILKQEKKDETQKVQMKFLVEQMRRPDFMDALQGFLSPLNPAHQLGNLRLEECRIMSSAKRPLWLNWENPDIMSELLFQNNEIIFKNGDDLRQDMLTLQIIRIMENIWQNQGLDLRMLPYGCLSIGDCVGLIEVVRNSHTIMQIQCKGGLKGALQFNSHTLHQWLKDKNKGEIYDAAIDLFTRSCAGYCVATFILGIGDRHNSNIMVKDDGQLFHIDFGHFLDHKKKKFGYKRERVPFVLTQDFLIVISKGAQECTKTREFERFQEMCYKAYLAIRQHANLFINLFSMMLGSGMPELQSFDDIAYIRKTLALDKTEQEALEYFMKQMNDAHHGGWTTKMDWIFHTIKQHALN
UniProt P61823, sequence (whole entry, looked up): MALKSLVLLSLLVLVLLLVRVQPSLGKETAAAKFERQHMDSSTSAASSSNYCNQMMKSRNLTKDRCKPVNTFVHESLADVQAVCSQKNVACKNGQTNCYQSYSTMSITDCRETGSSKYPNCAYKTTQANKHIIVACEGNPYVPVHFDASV
UniProt Q15910, sequence (whole entry, looked up): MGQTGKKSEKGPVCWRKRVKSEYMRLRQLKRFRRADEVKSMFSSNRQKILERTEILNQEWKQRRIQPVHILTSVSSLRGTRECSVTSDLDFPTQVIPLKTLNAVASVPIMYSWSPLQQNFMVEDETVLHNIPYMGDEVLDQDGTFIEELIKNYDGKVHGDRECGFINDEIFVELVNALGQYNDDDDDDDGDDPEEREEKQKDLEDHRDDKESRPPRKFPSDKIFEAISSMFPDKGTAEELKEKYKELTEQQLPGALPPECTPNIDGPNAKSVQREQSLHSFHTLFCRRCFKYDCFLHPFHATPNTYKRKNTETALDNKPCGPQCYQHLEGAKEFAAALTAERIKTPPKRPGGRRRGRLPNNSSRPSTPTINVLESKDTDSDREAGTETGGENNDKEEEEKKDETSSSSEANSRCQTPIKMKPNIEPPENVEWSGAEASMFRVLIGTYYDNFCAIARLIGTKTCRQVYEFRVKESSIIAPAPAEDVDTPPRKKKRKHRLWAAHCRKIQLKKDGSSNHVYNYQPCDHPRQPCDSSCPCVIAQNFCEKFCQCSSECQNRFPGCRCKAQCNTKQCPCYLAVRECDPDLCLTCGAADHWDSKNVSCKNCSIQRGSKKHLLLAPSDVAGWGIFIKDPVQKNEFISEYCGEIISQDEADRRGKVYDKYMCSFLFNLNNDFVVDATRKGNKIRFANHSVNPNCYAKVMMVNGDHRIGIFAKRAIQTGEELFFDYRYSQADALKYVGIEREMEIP
UniProt Q96SW2, sequence (whole entry, looked up): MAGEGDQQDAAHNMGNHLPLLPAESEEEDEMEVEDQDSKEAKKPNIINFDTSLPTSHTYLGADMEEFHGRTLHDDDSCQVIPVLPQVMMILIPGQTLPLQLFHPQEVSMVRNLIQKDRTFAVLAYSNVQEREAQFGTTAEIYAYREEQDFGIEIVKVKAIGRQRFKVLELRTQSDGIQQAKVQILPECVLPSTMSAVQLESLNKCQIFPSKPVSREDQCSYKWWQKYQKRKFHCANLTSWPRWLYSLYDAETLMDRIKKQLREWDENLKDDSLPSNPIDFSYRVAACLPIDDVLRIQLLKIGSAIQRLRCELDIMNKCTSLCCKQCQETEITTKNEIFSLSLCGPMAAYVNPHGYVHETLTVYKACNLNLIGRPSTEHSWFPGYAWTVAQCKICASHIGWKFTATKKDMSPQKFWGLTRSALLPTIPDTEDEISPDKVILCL
UniProt P05091, sequence (whole entry, looked up): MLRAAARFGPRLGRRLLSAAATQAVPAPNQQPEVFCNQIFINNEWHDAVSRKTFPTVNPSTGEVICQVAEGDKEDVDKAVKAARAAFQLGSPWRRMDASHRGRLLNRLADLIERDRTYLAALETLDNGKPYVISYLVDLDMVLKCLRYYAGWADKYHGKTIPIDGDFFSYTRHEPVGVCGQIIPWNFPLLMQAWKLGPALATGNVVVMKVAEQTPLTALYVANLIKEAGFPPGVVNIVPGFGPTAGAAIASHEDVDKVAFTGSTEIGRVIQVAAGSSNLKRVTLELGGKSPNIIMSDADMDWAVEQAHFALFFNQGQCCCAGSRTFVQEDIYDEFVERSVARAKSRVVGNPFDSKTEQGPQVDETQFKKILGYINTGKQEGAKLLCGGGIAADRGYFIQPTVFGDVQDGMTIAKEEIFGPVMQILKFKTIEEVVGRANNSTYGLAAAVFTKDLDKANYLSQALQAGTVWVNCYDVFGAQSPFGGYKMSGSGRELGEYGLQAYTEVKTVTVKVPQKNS
UniProt P0AF12, sequence (whole entry, looked up): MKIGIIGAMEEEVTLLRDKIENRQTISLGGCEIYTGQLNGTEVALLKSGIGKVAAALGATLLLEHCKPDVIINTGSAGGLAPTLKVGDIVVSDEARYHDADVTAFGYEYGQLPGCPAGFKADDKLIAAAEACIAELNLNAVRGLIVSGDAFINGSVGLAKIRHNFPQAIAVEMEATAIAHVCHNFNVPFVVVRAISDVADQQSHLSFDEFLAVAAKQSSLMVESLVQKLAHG
UniProt P51575, sequence (whole entry, unmodified, looked up): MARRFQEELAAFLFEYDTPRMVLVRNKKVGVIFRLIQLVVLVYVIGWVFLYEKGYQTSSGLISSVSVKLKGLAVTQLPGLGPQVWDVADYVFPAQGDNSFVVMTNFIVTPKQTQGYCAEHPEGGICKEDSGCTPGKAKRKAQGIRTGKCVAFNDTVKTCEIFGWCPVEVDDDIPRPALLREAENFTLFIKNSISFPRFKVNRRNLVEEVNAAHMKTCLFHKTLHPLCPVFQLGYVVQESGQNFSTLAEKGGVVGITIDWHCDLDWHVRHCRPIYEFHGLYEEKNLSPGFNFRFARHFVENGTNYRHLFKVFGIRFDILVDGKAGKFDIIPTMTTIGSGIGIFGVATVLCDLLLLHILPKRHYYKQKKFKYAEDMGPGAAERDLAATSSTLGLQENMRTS
UniProt Q8TDX7, sequence (whole entry, looked up): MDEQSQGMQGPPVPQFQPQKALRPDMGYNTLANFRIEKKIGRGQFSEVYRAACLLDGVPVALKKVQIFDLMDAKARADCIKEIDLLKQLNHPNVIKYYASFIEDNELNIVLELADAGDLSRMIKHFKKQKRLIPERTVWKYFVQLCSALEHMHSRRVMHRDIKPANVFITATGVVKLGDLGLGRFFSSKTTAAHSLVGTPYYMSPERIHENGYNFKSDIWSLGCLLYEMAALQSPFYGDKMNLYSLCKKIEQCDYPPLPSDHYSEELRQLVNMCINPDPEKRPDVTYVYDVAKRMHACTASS

CNC(=O)[C@@]12C[C@@H]1[C@@H](n1cnc3c(NC)nc(C#Cc4cnccn4)nc31)[C@H](O)[C@@H]2O  Ki (ADRA2C (Homo sapiens, UniProt P18825); radioligand binding (PDSP)): 1000 to 10000 nM
CCCCOc1ccc(CC(=O)NO)cc1  Kd (ALDH2 (Homo sapiens, UniProt P05091); inhibitor, competition pulldown; SW620 and MV4-11 lysate; 1 h): 0.585 µM
CC[C@H](C)[C@H](NC(=O)[C@H](Cc1ccc(OP(=O)(O)O)cc1)NC(=O)[C@H](CC(N)=O)NC(=O)[C@H](CC(C)C)NC(=O)[C@@H](N)CO)C(=O)N[C@@H](CC(=O)O)C(=O)N[C@@H](CC(C)C)C(=O)N[C@@H](CC(=O)O)C(=O)N[C@@H](CC(C)C)C(=O)N[C@H](C(=O)N[C@@H](CCCCN)C(=O)O)C(C)C  EC50 (PTPN11 (Homo sapiens, UniProt Q06124, S502P); enzyme activity, activator; pH 7.0, 2% DMSO, together with: DiFMUP 100 µM, phosphopeptide): 0.12 ± 0.02 µM
COc1cc(C(=O)C(=O)N2CCCC[C@H]2C(=O)OC(CCCc2cccnc2)CCCc2cccnc2)cc(OC)c1OC  Ki (FKBP1A (Homo sapiens, UniProt P62942); enzyme activity, inhibitor, PPIase; 10 °C): 130 nM
CC[C@@H]1[C@H](F)C(=O)N[C@@H]1COc1nccc2cc(C(N)=O)c(OC)cc12  IC50 (PLK1; ATP-site probe binding, ActivX profiling; THP-1 cell lysate; Lys2 site): > 5 µM
O=C1CC(N(CCc2ccccc2)C(=S)Nc2ccccc2)C(=O)N1c1ccc(Br)cc1 (centres unmarked)  IC50 (Histone acetyltransferase RTT109 with Vps75; enzyme activity, inhibitor, HTS, CPM-based, dose response): > 125 µM
CC[C@H]1OC(=O)[C@H](C)[C@@H](O[C@H]2C[C@@](C)(OC)[C@@H](O)[C@H](C)O2)[C@H](C)[C@@H](O[C@@H]2O[C@H](C)C[C@H](N(C)C)[C@H]2O)[C@](C)(OC)C[C@@H](C)C(=O)[C@H](C)[C@@H](O)[C@]1(C)O  Ki (uncharacterized protein (Saccharopolyspora erythraea, UniProt A4F7P9); inhibitor; pH 7.6, 20 °C, together with: p-nitrophenyl-β-D-glucopyranoside): 164000 ± 45000 nM
Cc1ccc(C2(F)CC2N)cc1 (centres unmarked)  Ki (tyramine oxidase (Arthrobacter sp.); enzyme activity, competitive inhibitor, Lineweaver-Burk plot): 160 ± 10 nM
O=[N+]([O-])c1ccc2c(c1)S(=O)(=O)C=C2  EC90 (Toxoplasma gondii; parasite growth, luciferase reporter; HFF, tachyzoite; 72 h): 134 µM
COc1cc(C)[nH]c(=O)c1CN1CCc2c(Cl)cc([C@H](OC)C3COC3)c(Cl)c2C1=O  Ki (EZH2 (Homo sapiens, UniProt Q15910); inhibitor, TR-FRET; PRC2 with activator peptide): 0.019 nM
Cc1cc(C)nc(Sc2ccc3nsnc3c2[N+](=O)[O-])n1  IC50 (Histone acetyltransferase RTT109 with Vps75; enzyme activity, inhibitor, HTS, CPM-based, dose response): > 125 µM
NCc1cc2c(cc1F)C(=O)N(C1CCC(=O)NC1=O)C2 (centres unmarked)  DC50 (NEK7/CRBN (Homo sapiens, UniProt Q8TDX7+Q96SW2); degrader, Western blot; Hep3B; 6 h): ~0.1 µM
CCCCCCCCCc1ccc(C(=O)Nc2cc(C)ccc2C(=O)OC)cc1  DC50 (PLK1; degrader, western blot; PC-3; 23 h): > 60 µM
CC(C)C[C@H](NC(=O)C[C@H](O)[C@H](CC(C)C)NC(=O)[C@H](Cc1c[nH]cn1)NC(=O)CNC(=O)[C@@H](NC(=O)[C@H](C)NC(=O)[C@H](Cc1c[nH]c2ccccc12)NC(=O)[C@H](CCC(N)=O)NC(=O)[C@@H](Cc1ccccc1)NC(=O)COCCOCCNC(=O)CCC(C(=O)O)N1CCN(CC(=O)O)CCN(CC(=O)O)CCN(CC(=O)O)CC1)C(C)C)C(N)=O (some centres unmarked) [lutetium-177 labelled]  tissue uptake (BALB/c nu/nu mice, female, PC-3 xenograft tumour; intravenous, 100 pmol, 4 h, together with: PA 300 µg): 13.2 ± 2.2 %ID/g
CCCCCCNC(=O)n1cc(F)c(=O)[nH]c1=O  Ki (mtnN (Escherichia coli, UniProt P0AF12); enzyme activity, non-competitive inhibitor; together with: SAH substrate): 172000 nM
N[C@@H]1C[C@@]1(F)c1ccccc1  Ki (tyramine oxidase (Arthrobacter sp.); enzyme activity, competitive inhibitor, Lineweaver-Burk plot): 830 ± 10 nM
C=CC(=O)N(C)CCCCC(=O)N1CCN(c2nc(-c3cnc(N)nc3C(F)F)nc(N3CCOCC3)n2)CC1  Ki (PIK3CA): 6.26 nM
Nc1ncnc2c1ncn2[C@@H]1O[C@H](COP(=O)(O)OP(=O)(O)OP(=O)(O)O)[C@@H](O)[C@H]1O  EC50 (P2X purinoceptor 1 (P2RX1, Homo sapiens, UniProt P51575, A137L/K136E/K138D/K140L/R139M); ion current, agonist, two-electrode voltage clamp; 5): 9.06 µM
Cn1cc(-c2ccc(-c3cncc(Cl)c3N3CCC4(CCNC4=O)CC3)cc2)cn1  log2 fold change (COLO 205; gene expression, microarray, measured: TFRC mRNA; concentration not given, 2 h; baseline: untreated cells): -2.34
Cc1nnc(S)s1  IC50 (Histone acetyltransferase RTT109 with Vps75; enzyme activity, inhibitor, HTS, CPM-based, dose response): > 125 µM
C=CC(=O)NCCCCC(=O)N1CCN(c2nc(-c3cnc(N)nc3C(F)F)nc(N3CCOCC3)n2)CC1  Ki (PIK3CA): 5.86 nM
O=S1(=O)CC(S(=O)(=O)Nc2ccc(Cl)c(Cl)c2)c2ccccc21 (centres unmarked)  IC50 (Histone acetyltransferase RTT109 with Vps75; enzyme activity, inhibitor, HTS, CPM-based, dose response): > 125 µM
O=C(Nc1ccc([N+](=O)[O-])cc1Cl)c1cc(Cl)ccc1O  EC50 (Anoctamin-1 (Ano1, Mus musculus, UniProt Q8BHY3, R864A); chloride current, whole-cell patch clamp; HEK-293T TMEM16F knockout): 13.2 ± 2.46 µM
C[C@@H]1O[C@H](CNS(=O)(=O)c2ccc(CCN=[N+]=[N-])s2)[C@@H](O)[C@H](O)[C@@H]1O  Ki (fucose-binding lectin LecB (Pseudomonas aeruginosa, UniProt A0A0H2ZE85)): 360 ± 40 nM
O=S(=O)(NCc1ccccc1)c1ccc(Br)c2nsnc12  IC50 (Histone acetyltransferase RTT109 with Vps75; enzyme activity, inhibitor, HTS, CPM-based, dose response): > 125 µM
COc1cc(Nc2ncc3c(n2)-c2ccc(Cl)cc2C(c2c(F)cccc2OC)=NC3)ccc1C(=O)NCCOCCOCCNC(=O)COc1cccc2c1C(=O)N(C1CCC(=O)NC1=O)C2=O (centres unmarked)  EC50 (PTK2B (Homo sapiens, UniProt Q14289); binding, kinobead competition; MV4-11 cell lysate): > 30 µM
Cc1cc(C)nc(SC2=CS(=O)(=O)c3ccccc32)n1  IC50 (Histone acetyltransferase RTT109 with Vps75; enzyme activity, inhibitor, HTS, CPM-based, dose response): > 125 µM
Nc1ccn([C@@H]2O[C@H](COP(=O)(O)OP(=O)(O)O)[C@@H](O)[C@H]2O)c(=O)n1  Kd (RNASE1 (Bos taurus, UniProt P61823); binding, native mass spectrometry; surface-deposited protein; 100-fold diluted): 3.9 ± 0.2 µM
O=S1(=O)C=C(N2CCC3(CC2)OCCO3)c2ccccc21  IC50 (Histone acetyltransferase RTT109 with Vps75; enzyme activity, inhibitor, HTS, CPM-based, dose response): > 125 µM
CC(=O)OC[C@H]1O[C@@H]([S-])[C@H](OC(C)=O)[C@@H](OC(C)=O)[C@@H]1OC(C)=O.CCP(CC)CC.[Au+]  EC50 (Toxoplasma gondii; parasite growth, luciferase reporter; HFF, tachyzoite; 72 h): 2.75 µM
O=S1(=O)C=Cc2ccccc21  IC50 (Histone acetyltransferase RTT109 with Vps75; enzyme activity, inhibitor, HTS, CPM-based, dose response): > 125 µM
Cc1ccc(C(=O)Nc2ccc(S(=O)(=O)O)c3cc(S(=O)(=O)O)cc(S(=O)(=O)O)c23)cc1NC(=O)c1cccc(NC(=O)Nc2cccc(C(=O)Nc3cc(C(=O)Nc4ccc(S(=O)(=O)O)c5cc(S(=O)(=O)O)cc(S(=O)(=O)O)c45)ccc3C)c2)c1  Ki (Uncharacterized protein (Trypanosoma brucei, UniProt Q38AT7)): 6000 nM

Repeated from above:
O=S1(=O)CC(S(=O)(=O)Nc2ccc(Cl)c(Cl)c2)c2ccccc21 (centres unmarked)  IC50 (Histone acetyltransferase RTT109 with Vps75; enzyme activity, inhibitor, HTS, CPM-based, dose response): > 125 µM
O=C(Nc1ccc([N+](=O)[O-])cc1Cl)c1cc(Cl)ccc1O  EC50 (Anoctamin-1 (Ano1, Mus musculus, UniProt Q8BHY3, R864A); chloride current, whole-cell patch clamp; HEK-293T TMEM16F knockout): 13.2 ± 2.46 µM
C[C@@H]1O[C@H](CNS(=O)(=O)c2ccc(CCN=[N+]=[N-])s2)[C@@H](O)[C@H](O)[C@@H]1O  Ki (fucose-binding lectin LecB (Pseudomonas aeruginosa, UniProt A0A0H2ZE85)): 360 ± 40 nM
O=S(=O)(NCc1ccccc1)c1ccc(Br)c2nsnc12  IC50 (Histone acetyltransferase RTT109 with Vps75; enzyme activity, inhibitor, HTS, CPM-based, dose response): > 125 µM
